Published values collected from several papers.
Each line is one published result; not all experiments were run side by side.
Cell line: THP-1

SMILES | read-out | technique | time | notes | measurement | result
[Cl-].[Cl-].[Mn+2].c1ccc(CN2CCNCCN(Cc3ccccc3)CCNCC2)cc1 | cytotoxicity | – | – | – | IC90 | > 20 µM
COc1ccc(CCNC(=O)C(=O)[C@H](Cc2ccccc2)NC(=O)c2oc3cc(OC)c(OC)cc3c(=O)c2C)cc1 | cell growth or viability | – | 72 h | – | CC50 | 29.1 µM
CC/C(=C\c1ccc(OCC(=O)NC(C(=O)N2CCOCC2)c2ccccc2)cc1)[N+](=O)[O-] (stereo not shown) | – | MTT | 72 h | 10% FBS | CC50 | 46.8 µM
CC(=O)[O-].F[P-](F)(F)(F)(F)F.[Co+2].c1ccc(CN2CCCN3CCN(CCCN(Cc4ccccc4)CC3)CC2)cc1 | cell growth or viability | – | – | – | IC50 | > 15 µM
Cc1ccc(NC(=O)N2CCCN3CCC(c4ccc(C#CC5(O)CCCCC5)cc4)C3C2)cc1 (stereo not shown) | cell growth or viability | ATP luminescence | 72 h | – | CC50 | 13.8 µM
CCCCCc1cn(CCCCCCCCCCCOP(=O)([O-])OCC[N+](C)(C)C)nn1 | cell growth or viability | flow cytometry | 24 h | – | CC50 | > 50 µM
CC(=O)[O-].CN(C)C=O.F[P-](F)(F)(F)(F)F.[Co+2].c1ccc(CN2CCN3CCCN(CC2)CCN(Cc2ccccc2)CC3)cc1 | cytotoxicity | – | – | – | IC90 | > 10 µM
COC(=O)Cn1c(=O)n(C(C)=O)c2cc(B(O)O)ccc21 | – | CellTiter-Glo | 6 h | – | highest non-toxic concentration | < 2 mM
COc1ccc(Oc2ccc([C@@H](C)N(C)c3ncc4c(N)nc(N)nc4n3)cc2)cc1 | cell viability | – | 72 h | extrapolated, serum 10% | CC50 | 36.6 µM
COc1ccc(NC(=O)N2CCCN3CCC(c4ccc(C#CC5CCCC5)cc4)C3C2)cc1 (stereo not shown) | cell growth or viability | ATP luminescence | 72 h | – | CC50 | 8.02 µM
F[P-](F)(F)(F)(F)F.F[P-](F)(F)(F)(F)F.[Cu+2].c1ccc(CN2CCCNCCN(Cc3ccccc3)CCCNCC2)cc1 | cell growth or viability | – | – | – | IC50 | > 15 µM
CC/C(=C\c1ccc(OCC(=O)NC(C(=O)N2CCSCC2)c2ccccc2)cc1)[N+](=O)[O-] (stereo not shown) | – | MTT | 72 h | 10% FBS | CC50 | 2.98 µM
CCOC(=O)c1cn(CC(c2c[nH]c3cc(Br)ccc23)c2c[nH]c3cc(Br)ccc23)c(C)c1C(=O)OC | cell growth or viability | MTS | 72 h | – | CC50 | 124 µM
CCOC(=O)c1c(C#N)c(-c2c[nH]c3c(C)cccc23)n(NC(=O)OC(C)(C)C)c1C | cell growth or viability | – | – | – | CC50 | 65.2 µM
COc1ccc(NC(=O)N2CCCN3CCC(c4ccc(C#Cc5ccccc5)cc4)C3C2)cc1 (stereo not shown) | cell growth or viability | ATP luminescence | 72 h | – | CC50 | 7.94 µM
CC(=O)[O-].F[P-](F)(F)(F)(F)F.[Cu+2].c1ccc(CN2CCN3CCN(CC2)CCN(Cc2ccccc2)CC3)cc1 | cell growth or viability | – | – | – | IC50 | > 20 µM

Some of these lines once more:
SMILES | read-out | technique | time | notes | measurement | result
CC/C(=C\c1ccc(OCC(=O)NC(C(=O)N2CCSCC2)c2ccccc2)cc1)[N+](=O)[O-] (stereo not shown) | – | MTT | 72 h | 10% FBS | CC50 | 2.98 µM
CCOC(=O)c1cn(CC(c2c[nH]c3cc(Br)ccc23)c2c[nH]c3cc(Br)ccc23)c(C)c1C(=O)OC | cell growth or viability | MTS | 72 h | – | CC50 | 124 µM
CCOC(=O)c1c(C#N)c(-c2c[nH]c3c(C)cccc23)n(NC(=O)OC(C)(C)C)c1C | cell growth or viability | – | – | – | CC50 | 65.2 µM
